Experimental data pooled from the literature.
Numbered parts are unrelated; each lists some results of a single study. Substitutions count along the parent as printed.

Block 1
Target: Prothrombin, mature alpha-thrombin (F2, Homo sapiens, UniProt P00734)
Method: aptamer microarray, sandwich
Form: DNA with 2'F-ANA
Sample: in vitro
Concentration: 200 nM
Notes: whole 15-mer aptamer, many near background
Together with: Cy3 exosite-II aptamer, 400 nM
Reading: higher = stronger binding
Oligonucleotide: GGTTGGTGTGGTTGG
| Modification | mean fluorescence intensity [a.u.] |
| --- | --- |
| 2'F-ANA at 1 4 7 10 12 13 14 15 | 57.1 |
| 2'F-ANA at 1 3 7 8 13 15 | 304 |
| 2'F-ANA at 1 2 3 4 5 10 11 13 14 15 | 74.1 |
| 2'F-ANA at 5 6 8 10 12 13 14 | 70.3 |
| 2'F-ANA at 2 5 13 | 54.4 |
| 2'F-ANA at 2 5 7 8 9 10 12 14 | 51.9 |
| 2'F-ANA at 3 5 7 10 11 12 13 15 | 60.9 |
| 2'F-ANA at 3 4 5 6 11 14 | 52 |
| 2'F-ANA at 3 8 11 13 15 | 785 |
| 2'F-ANA at 1 2 3 5 7 11 13 15 | 50.2 |
| 2'F-ANA at 2 6 7 9 11 12 13 14 | 127 |

Block 2
Target: RING finger protein unkempt homolog, zinc fingers 1-6, GST-SBP tag (UNK, Homo sapiens, UniProt Q9C0B0, residues 30-357)
Chain of UniProt Q9C0B0 (30-357, looked up): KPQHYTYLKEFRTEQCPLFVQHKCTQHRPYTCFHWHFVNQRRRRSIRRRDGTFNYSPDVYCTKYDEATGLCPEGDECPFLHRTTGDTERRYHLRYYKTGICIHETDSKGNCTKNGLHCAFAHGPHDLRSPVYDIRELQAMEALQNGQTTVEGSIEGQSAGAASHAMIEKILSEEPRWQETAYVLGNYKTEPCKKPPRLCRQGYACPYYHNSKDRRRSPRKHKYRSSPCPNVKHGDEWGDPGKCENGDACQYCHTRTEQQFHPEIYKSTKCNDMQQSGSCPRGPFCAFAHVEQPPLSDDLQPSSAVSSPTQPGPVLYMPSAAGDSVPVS
Method: RNA Bind-n-Seq
Form: RNA
Sample: in vitro
Concentration: not given
Notes: RNA with constant flanks, human-mouse chimeric sites, ends assumed
Reference: input RNA pool
Reading: higher = stronger binding
Constant ends, left off below: GGGAGUUCUACAGUCCGACGAUC … CAACAGAGGAUUGAGCAUCA
| Oligonucleotide | bound/input enrichment [ratio] |
| --- | --- |
| GCACUUGGGAAUGUAAUCAGCGCCUUGGGGGACAAGAGCAAGAGAGCCACCCAUGUCCCUUACAGAGACUCUAAGCUGACAAGACUCUUGCAGGAUUCCCUUGGGGGUAACAGCCAAACC | 0.136 |
| AACGUGGAGUUGAGUUCCUUGGCCCGGCUUCCCAGCUUAAAUAAACUCCGGAAGUUGGAGCUUAGUGACAAUAUAAUUUCUGGAGGCUUGGAAGUCCUGGCAGAGAAAUGUCCAAAUCUU | 0.138 |
| CUGGCCUGGCCCUCCCCAGGGGCCUCCUUUCGUAUAGUCACUGCUUCUGCAUCAGAUAUUUUUAGCUGCAACUCCCUACUGGGUGGGGCACCCAUUUGAGGCAGGGUGUUUUGGUACCCU | 1.05 |
| CACUCGAGGGCUGCCGUUUUCUGUUUCUCCCUGGGCUGCGGAAAGCCAGAAGAUUUUAUCUAGCUUAUACAAGGCUGCUGGUGUUCCCUCUUUUUUUCCCUCUCUCUGUUUUUGGCUGCA | 0.604 |
| CGGAGCCCUCCUCUCCCACAGGCCCAAGAUAUAACCCACCAGUGCCUUUUGUCUUCCUGUCAGCUCUAAUCAAUCAUCCUGUCCUCUCACGCCCACACCAAGUGCCCCCACCCCUAAGGG | 0.791 |
| ACAGUUAUAUUGUUGAGGUUUGUAUUUAUAUAUUCUUGUAGUGUCUGCUUGCCUGUGUCUUUUAGUAAAAUAAAAUAAGCCUUUGAAAAUAUUUUAGCAUGGUAUUUAACAUUUUCUAAA | 3.46 |
| AUAUUUCAUAUUGCAAAGAUGUUUACAAGUAUUUUAAUUUAAGUUCAGUGAACUUUUUUGUAGCUGGGUUAAAUCUUUUUAUUUUUAUAUGGCCUUAUGGCAAAGAACACUGUAUUAUUU | 1.09 |
| GCUGAAAAUGAAGAAGAGGCAGCUGAUGUCUGGUACAACCUGGGGCAUGUAGCUGUGGGAAUCGGAGAUACAAACUUGGCCCAUCAGUGCUUCAGGCUGGCCCUGGUCCACAACAACCAC | 0.131 |

Block 3
Target: ABI1, truncated, D143A, DHFR fusion (Arabidopsis thaliana)
Method: DHFR PCA, deep sequencing
Sample: yeast
Notes: methotrexate growth selection, single substitutions
Together with: (+)-ABA 200 µM
Reference: wild-type fitted maximum
Reading: higher = stronger binding
Starting sequence: PYL1, truncated, DHFR fusion (Arabidopsis thaliana); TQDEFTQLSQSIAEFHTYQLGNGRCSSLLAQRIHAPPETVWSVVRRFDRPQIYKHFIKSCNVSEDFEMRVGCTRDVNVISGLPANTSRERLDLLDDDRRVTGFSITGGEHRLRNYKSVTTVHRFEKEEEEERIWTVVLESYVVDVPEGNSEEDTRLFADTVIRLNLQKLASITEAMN; partner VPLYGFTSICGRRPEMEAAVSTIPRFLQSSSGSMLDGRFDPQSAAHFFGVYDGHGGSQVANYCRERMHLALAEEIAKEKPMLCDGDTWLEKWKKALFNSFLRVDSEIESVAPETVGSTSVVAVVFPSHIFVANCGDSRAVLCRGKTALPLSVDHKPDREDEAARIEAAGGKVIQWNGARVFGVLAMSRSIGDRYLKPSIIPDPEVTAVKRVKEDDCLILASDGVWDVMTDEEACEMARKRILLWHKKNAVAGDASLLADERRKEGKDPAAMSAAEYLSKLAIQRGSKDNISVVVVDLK
| Change | relative binding score [%] |
| --- | --- |
| S11T | 90.2 |
| E89Q | 16.9 |
| V76W | 12.2 |
| V62W | 74.8 |
| R74E | 12.4 |
| V76C | 99.9 |
| A84C | 86.4 |
| R90P | 1.18 |
| R90S | 83.4 |

Other studies, line by line
| Molecule | target | test | test system | conditions | scale | endpoint | value |
| --- | --- | --- | --- | --- | --- | --- | --- |
| PhoQ, residues 284 288 289 292 302 303 GANMMA | PhoP, residues 12 14 15 18 19 TTLRV (Escherichia coli, UniProt P23836) | Sort-seq, measured: YFP reporter | E. coli | PhoQ-PhoP variant library, together with: 10 µM Mg2+ | reference: high Mg2+ state, higher = stronger signaling | fold induction | 5.16 |

Excerpt of the above (block 1):
| Modification | mean fluorescence intensity [a.u.] |
| --- | --- |
| 2'F-ANA at 1 3 7 8 13 15 | 304 |
| 2'F-ANA at 1 2 3 4 5 10 11 13 14 15 | 74.1 |
| 2'F-ANA at 5 6 8 10 12 13 14 | 70.3 |
| 2'F-ANA at 2 5 13 | 54.4 |
